Measured values gathered from unrelated publications.
Each line is one published result; not all experiments were run side by side. “And” joins repeats or separate records; there may be more than shown. Numbers after ± are the reported error.
ADORA1: Adenosine receptor A1 (ADORA1, Homo sapiens, UniProt P30542)
UniProt P30542, sequence (whole entry, looked up): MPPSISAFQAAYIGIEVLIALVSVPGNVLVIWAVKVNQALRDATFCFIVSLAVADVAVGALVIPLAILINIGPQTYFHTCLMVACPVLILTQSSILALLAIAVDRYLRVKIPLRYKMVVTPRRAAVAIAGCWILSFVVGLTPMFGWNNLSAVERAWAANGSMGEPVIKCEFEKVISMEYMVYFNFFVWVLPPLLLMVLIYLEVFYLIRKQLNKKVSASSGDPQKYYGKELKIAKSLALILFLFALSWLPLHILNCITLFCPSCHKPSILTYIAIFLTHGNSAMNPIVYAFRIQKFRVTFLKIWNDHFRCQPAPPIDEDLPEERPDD
ESR2: Estrogen receptor beta (ESR2, Homo sapiens, UniProt Q92731)
UniProt Q92731, sequence (whole entry, looked up): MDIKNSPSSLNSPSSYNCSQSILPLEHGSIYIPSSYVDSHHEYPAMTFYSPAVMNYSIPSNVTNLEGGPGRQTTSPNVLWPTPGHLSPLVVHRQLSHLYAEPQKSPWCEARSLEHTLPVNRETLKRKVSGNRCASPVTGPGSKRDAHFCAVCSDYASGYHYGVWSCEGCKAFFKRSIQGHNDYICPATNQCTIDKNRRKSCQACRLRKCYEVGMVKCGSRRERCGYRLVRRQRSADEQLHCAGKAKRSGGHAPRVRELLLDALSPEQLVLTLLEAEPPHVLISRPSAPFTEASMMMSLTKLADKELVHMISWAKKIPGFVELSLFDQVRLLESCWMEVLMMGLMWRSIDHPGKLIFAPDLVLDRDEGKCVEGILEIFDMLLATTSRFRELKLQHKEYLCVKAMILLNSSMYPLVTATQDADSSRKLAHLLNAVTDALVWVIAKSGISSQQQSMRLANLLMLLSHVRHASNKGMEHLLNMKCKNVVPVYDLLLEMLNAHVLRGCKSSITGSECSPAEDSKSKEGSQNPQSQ
C3AR1: C3a anaphylatoxin chemotactic receptor (C3AR1, Homo sapiens, UniProt Q16581)
UniProt P47870, sequence (whole entry, looked up): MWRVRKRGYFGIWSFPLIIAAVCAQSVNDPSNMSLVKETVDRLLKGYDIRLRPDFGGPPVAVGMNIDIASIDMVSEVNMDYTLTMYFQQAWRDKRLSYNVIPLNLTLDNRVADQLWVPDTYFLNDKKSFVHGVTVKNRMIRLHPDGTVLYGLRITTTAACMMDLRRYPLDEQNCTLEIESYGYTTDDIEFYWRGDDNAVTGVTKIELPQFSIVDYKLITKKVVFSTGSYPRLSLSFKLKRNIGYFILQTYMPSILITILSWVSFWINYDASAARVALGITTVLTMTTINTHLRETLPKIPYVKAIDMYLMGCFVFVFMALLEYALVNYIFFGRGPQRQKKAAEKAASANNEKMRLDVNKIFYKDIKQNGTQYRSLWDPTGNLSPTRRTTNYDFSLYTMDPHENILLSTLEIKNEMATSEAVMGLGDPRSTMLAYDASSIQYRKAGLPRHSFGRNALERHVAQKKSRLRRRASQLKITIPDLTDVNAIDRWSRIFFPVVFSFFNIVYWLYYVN
UniProt P21462, sequence (whole entry, looked up): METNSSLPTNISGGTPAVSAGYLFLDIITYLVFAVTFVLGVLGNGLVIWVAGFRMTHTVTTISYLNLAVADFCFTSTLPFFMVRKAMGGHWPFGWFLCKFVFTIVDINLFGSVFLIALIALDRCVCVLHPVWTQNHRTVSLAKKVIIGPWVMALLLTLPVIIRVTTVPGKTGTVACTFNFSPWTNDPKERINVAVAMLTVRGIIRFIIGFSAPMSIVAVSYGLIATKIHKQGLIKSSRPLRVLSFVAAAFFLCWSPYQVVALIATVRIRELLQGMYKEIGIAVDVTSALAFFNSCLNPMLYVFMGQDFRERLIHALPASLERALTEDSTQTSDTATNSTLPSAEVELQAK
UniProt Q16581, sequence (whole entry, looked up): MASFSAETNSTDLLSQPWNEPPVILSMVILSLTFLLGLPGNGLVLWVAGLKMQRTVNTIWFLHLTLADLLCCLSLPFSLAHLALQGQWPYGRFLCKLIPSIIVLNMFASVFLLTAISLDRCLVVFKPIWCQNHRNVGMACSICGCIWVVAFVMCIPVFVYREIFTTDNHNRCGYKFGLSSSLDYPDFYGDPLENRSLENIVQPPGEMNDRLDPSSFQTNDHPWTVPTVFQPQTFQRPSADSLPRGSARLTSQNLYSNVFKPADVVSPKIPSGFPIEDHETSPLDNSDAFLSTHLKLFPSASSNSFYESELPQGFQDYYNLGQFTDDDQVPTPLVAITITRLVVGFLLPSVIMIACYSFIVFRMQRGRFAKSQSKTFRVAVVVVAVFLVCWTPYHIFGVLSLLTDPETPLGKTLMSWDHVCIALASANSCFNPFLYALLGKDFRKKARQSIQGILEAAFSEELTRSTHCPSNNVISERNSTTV
UniProt P17948, sequence (whole entry, looked up): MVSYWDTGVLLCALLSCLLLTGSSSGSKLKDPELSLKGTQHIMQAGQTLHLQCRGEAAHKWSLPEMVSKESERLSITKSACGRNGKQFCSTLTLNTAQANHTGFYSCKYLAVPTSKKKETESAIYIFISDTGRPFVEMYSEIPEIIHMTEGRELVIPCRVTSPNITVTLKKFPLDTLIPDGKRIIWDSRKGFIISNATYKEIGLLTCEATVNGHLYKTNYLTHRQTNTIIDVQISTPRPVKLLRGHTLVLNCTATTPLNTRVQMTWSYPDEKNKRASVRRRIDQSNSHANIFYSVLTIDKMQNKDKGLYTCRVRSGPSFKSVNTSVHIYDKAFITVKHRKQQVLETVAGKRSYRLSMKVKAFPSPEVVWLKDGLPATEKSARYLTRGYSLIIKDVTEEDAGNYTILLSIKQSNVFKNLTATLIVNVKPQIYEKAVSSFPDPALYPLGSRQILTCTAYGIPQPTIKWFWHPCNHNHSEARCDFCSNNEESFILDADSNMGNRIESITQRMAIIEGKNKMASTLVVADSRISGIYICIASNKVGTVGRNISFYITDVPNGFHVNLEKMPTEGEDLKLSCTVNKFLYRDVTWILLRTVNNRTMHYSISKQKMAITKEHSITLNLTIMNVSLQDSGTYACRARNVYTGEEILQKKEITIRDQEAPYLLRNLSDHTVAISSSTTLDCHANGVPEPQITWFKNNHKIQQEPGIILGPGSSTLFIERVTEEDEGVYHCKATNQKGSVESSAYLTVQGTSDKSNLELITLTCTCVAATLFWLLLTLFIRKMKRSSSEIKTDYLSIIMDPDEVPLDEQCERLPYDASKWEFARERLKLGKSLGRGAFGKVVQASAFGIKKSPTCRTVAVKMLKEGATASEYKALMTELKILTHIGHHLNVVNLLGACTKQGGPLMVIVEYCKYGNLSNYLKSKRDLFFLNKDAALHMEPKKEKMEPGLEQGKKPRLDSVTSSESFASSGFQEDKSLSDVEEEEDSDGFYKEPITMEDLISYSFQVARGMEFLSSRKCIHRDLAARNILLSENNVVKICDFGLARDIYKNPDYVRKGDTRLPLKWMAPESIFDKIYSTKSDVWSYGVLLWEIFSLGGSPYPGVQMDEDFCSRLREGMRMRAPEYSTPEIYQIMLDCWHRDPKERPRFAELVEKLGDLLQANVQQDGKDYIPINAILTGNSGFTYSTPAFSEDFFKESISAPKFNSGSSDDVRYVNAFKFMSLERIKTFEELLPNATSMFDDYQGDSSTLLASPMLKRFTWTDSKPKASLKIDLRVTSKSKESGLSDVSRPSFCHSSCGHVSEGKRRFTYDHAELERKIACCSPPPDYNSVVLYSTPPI
UniProt Q16445, sequence (whole entry, looked up): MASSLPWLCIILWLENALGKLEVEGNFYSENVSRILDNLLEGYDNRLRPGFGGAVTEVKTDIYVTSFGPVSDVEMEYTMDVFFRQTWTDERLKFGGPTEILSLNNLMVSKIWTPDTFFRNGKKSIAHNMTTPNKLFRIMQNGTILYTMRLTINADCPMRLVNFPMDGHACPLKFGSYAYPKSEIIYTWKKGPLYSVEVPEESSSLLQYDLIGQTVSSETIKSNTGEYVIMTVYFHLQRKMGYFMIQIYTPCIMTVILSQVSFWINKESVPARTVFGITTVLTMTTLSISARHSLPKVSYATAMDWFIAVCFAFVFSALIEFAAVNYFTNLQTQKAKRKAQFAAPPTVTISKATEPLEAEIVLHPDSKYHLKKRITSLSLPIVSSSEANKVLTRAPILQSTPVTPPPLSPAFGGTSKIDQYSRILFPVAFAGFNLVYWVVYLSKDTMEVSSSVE
UniProt P03372, sequence (whole entry, looked up): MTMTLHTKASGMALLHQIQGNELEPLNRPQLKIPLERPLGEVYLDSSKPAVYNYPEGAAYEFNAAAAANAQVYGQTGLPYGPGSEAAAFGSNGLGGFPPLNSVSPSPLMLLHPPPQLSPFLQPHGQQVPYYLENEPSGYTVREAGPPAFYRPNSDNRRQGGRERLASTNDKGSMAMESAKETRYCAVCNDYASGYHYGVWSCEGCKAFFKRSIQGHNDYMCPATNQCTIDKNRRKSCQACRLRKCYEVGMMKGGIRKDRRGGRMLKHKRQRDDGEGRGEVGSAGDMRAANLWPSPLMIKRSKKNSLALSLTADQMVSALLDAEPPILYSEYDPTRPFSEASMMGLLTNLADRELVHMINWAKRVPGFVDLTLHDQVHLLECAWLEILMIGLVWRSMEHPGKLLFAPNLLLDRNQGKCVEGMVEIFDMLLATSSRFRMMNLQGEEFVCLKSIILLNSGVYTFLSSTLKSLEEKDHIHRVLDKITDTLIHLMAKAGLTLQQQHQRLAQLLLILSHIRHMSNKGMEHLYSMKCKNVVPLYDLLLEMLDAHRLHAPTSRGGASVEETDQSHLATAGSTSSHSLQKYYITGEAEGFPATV
UniProt P49685, sequence (whole entry, looked up): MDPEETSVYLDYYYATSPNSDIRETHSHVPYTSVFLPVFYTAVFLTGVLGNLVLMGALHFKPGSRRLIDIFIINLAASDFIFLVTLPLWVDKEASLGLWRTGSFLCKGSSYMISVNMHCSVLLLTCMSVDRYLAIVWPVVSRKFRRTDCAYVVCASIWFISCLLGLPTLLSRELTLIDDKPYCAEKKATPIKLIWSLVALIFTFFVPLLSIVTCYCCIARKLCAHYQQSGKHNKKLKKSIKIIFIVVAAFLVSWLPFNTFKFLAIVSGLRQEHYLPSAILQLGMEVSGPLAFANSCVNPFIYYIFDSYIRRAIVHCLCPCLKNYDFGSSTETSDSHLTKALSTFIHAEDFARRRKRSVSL

`CCNC(=O)[C@H]1O[C@@H](n2cnc3c(NCCOCCOCCNC(=O)CCCCCNC(=O)COc4ccc(/C=C/C5=[N+]6C(=Cc7ccc(-c8cccs8)n7[B-]6(F)F)C=C5)cc4)ncnc32)[C@H](O)[C@@H]1O` has an EC50 of 1620 nM (ADORA1; CRE-SPAP reporter gene, agonist; CHO-A1; Gs enhancement, together with: forskolin).
`N=C(N)NCCC[C@H](NC(=O)[C@H](CC(=O)O)NC(=O)[C@@H]1CSCCC(=O)NCC(=O)N[C@@H](Cc2c[nH]cn2)C(=O)N[C@H](Cc2ccccc2)C(=O)N[C@@H](CCCNC(=N)N)C(=O)N[C@H](Cc2c[nH]c3ccccc23)C(=O)N1)C(=O)N[C@@H](Cc1ccccc1)C(=O)NCC(N)=O` gave an EC50 of 1100 nM (Melanocortin receptor 3 (MC3R, Homo sapiens, UniProt P41968); cAMP, agonist).
`CN(Cc1cccc(F)c1)C(=O)c1ccc(O)c(Cl)c1` has an EC50 of 1410 nM (ESR2; coactivator recruitment, agonist).
With `CSCC[C@H](NC(=O)[C@H](CC(C)C)NC(=O)[C@H](CCC(N)=O)NC(=O)[C@H](Cc1c[nH]c2ccccc12)NC(=O)[C@H](CC(C)C)NC(=O)[C@H](CCCNC(=N)N)NC(=O)[C@H](Cc1c[nH]cn1)NC(=O)[C@H](CO)NC(=O)[C@H](CC(C)C)NC(=O)[C@H](CC(N)=O)NC(=O)[C@H](CCC(N)=O)NC(=O)[C@@H](NC(=O)[C@H](CCC(N)=O)NC(=O)[C@@H]1CSSC[C@H](NC(=O)CNC(=O)[C@@H](N)C(C)C)C(=O)N[C@@H](C(C)C)C(=O)N[C@@H](CC(C)C)C(=O)NCC(=O)N[C@@H]([C@@H](C)O)C(=O)N1)C(C)C)C(=O)NCC(=O)N1CCC[C@H]1C(=O)N[C@@H](C)C(=O)NCC(=O)N[C@@H](CCCCN)C(=O)N[C@@H](CCC(N)=O)C(=O)N[C@@H](CC(=O)O)C(=O)N[C@@H](CO)C(=O)N[C@@H](C)C(=O)N1CCC[C@H]1C(=O)N[C@H](C(=O)N[C@@H](CC(=O)O)C(=O)N1CCC[C@H]1C(=O)N[C@@H](CO)C(=O)N[C@@H](CO)C(=O)N1CCC[C@H]1C(=O)N[C@@H](Cc1c[nH]cn1)C(=O)N[C@@H](CO)C(=O)N[C@@H](Cc1ccc(O)cc1)C(N)=O)C(C)C` the EC50 was 2.88 nM (Calcitonin-gene-related peptide receptor, CALCRL/RAMP1 (Homo sapiens, UniProt O60894+Q16602); cAMP, agonist, CAMYEL BRET; COS-7; 37 °C).
`COc1ccc(C(=O)Nc2c(-c3cccs3)nc3ccccn23)cc1` has an EC50 of 2250 nM (Gamma-aminobutyric acid receptor subunit delta/Gamma-aminobutyric acid receptor subunit beta-2/Gamma-aminobutyric acid receptor subunit alpha-6 (Homo sapiens, UniProt O14764+P47870+Q16445); positive allosteric modulator, FLIPR membrane potential; cells expressing α6β2δ GABA-A receptor).
For `CC(C)C[C@H](NC(=O)[C@H](C)NC(=O)[C@H](CO)NC(=O)[C@@H]1CCCN1C(=O)[C@@H]1CCCN1C(=O)[C@H](CCC(N)=O)NC(=O)[C@H](CC(C)C)NC(=O)[C@@H](N)[C@@H](C)O)C(=O)N[C@@H](CCCNC(=N)N)C(=O)N[C@@H](CCCNC(=N)N)C(=O)N[C@@H](CCCNC(=N)N)C(=O)N[C@@H](Cc1c[nH]cn1)C(=O)N[C@@H](Cc1ccc(O)cc1)C(=O)N[C@@H](Cc1c[nH]cn1)C(=O)N[C@@H](Cc1c[nH]cn1)C(=O)N[C@@H](C)C(=O)N[C@@H](CC(C)C)C(=O)N1CCC[C@H]1C(=O)N1CCC[C@H]1C(=O)N[C@@H](CO)C(=O)N[C@@H](CCCNC(=N)N)C(=O)O`, the EC50 was 3180 nM (C3AR1; β-arrestin2 recruitment, agonist, BRET; 60 min, 37 °C, together with: GRK2 co-expression).
`CC(C)C[C@@H]1NC(=O)[C@H](CCCNC(=N)N)NC(=O)[C@H](C(C)C)NC(=O)[C@H](Cc2c[nH]cn2)NC(=O)[C@H](Cc2c[nH]cn2)NC(=O)CNC(=O)[C@H](CCCCN)NC(=O)[C@H](CC(C)C)NC(=O)[C@H](CC(N)=O)NC(=O)[C@H]([C@@H](C)O)NC(=O)[C@H](CO)NC(=O)[C@H](CC(N)=O)NC(=O)[C@@H]2CCCN2C(=O)[C@H](CO)NC(=O)[C@@H]2CCCN2C(=O)[C@H](C(C)C)NC(=O)[C@H](CCCNC(=N)N)NC(=O)[C@H](Cc2c[nH]cn2)NC(=O)[C@@H]2CSSC[C@H](NC1=O)C(=O)N[C@@H](CCCCN)C(=O)N1CCC[C@H]1C(=O)N[C@H](C(=O)N[C@@H](CCCCN)C(=O)N[C@@H](CC(C)C)C(=O)N[C@@H](CCC(=O)O)C(=O)N1CCC[C@H]1C(=O)N[C@@H](CCC(=O)O)C(=O)N1CCC[C@H]1C(=O)N[C@@H](CCCNC(=N)N)C(=O)N[C@@H](CC(C)C)C(=O)N[C@@H](Cc1c[nH]c3ccccc13)C(=O)N[C@H](C(=O)N[C@H](C(=O)N1CCC[C@H]1C(=O)NCC(=O)N[C@@H](C)C(=O)N[C@@H](CC(C)C)C(=O)N1CCC[C@H]1C(=O)N[C@@H](CCC(N)=O)C(=O)N[C@H](C(=O)O)C(C)C)C(C)C)C(C)C)CSSC[C@H](NC(=O)[C@H](CC(C)C)NC(=O)[C@H](CCCNC(=N)N)NC(=O)[C@@H](NC(=O)[C@H](CCCNC(=N)N)NC(=O)[C@H](CCCNC(=N)N)NC(=O)CNC(=O)[C@H](CO)NC(=O)[C@H](Cc1c[nH]c3ccccc13)NC(=O)[C@H](C)NC(=O)[C@H](CCCCN)NC(=O)[C@H](C)NC(=O)[C@@H]1CCCN1C(=O)[C@H](CCCNC(=N)N)NC(=O)[C@H](CCCNC(=N)N)NC(=O)[C@@H](N)CCCCN)[C@@H](C)O)C(=O)N2` gave an EC50 of 16.2 nM (G-protein coupled receptor 15, with Gi1 (Homo sapiens, UniProt P49685); Gi1 activation, agonist, BRET; HEK293A transfected GPR15).
`CC[C@H](C)NC(=O)/C(=C\Nc1ccc(Cl)cc1)C(=O)c1ccccc1Cl` gave an EC50 of 160 ± 40 nM (GABA A receptor alpha-2/beta-2/gamma-2 (Homo sapiens, UniProt P18507+P47869+P47870); GABA current potentiation, positive modulator, two-electrode voltage clamp; Xenopus laevis oocytes; 30 s preincubation, together with: GABA EC10).
The EC50 of `COc1cc(-c2cnc3nc2NCCCNS(=O)(=O)c2cc(ccc2OC)N3)ccc1F` is reported as 42000 nM (Vascular endothelial growth factor receptor 1 (FLT1, Homo sapiens, UniProt P17948); target engagement in cells, BRET).
`CC(C)C[C@H](NC(=O)CNC(=O)[C@H](CC(C)C)NC(=O)[C@H](CCCCN)NC(=O)[C@H](CO)NC(=O)[C@H](C)NC(=O)[C@H](CCCN=C(N)N)NC(=O)[C@H](Cc1ccc(O)cc1)NC(=O)[C@H](CCCCN)NC(=O)[C@H](CCCCN)NC(=O)CNC(=O)[C@H](Cc1c[nH]c2ccccc12)NC(=O)[C@@H](N)Cc1c[nH]c2ccccc12)C(=O)N[C@@H](C)C(=O)N[C@@H](CCCN=C(N)N)C(=O)O` has an EC50 of 8.3 nM (C3AR1; G protein activation, agonist, BRET).
`CCCC[C@H](NC(=O)[C@H](CO)NC(=O)[C@H](Cc1ccc(O)cc1)NC(=O)[C@H](CO)NC(C)=O)C(=O)N[C@@H](CCC(=O)O)C(=O)N[C@@H](Cc1c[nH]cn1)C(=O)N[C@H](Cc1ccc2ccccc2c1)C(=O)N[C@@H](CCCNC(=N)N)C(=O)N[C@@H](Cc1c[nH]c2ccccc12)C(=O)NCC(=O)N[C@@H](CCCCN)C(=O)N1CCC[C@H]1C(=O)N[C@H](C(=O)NCC(=O)N[C@@H](CCCCN)C(=O)N[C@@H](CCCCN)C(=O)N[C@@H](CCCNC(=N)N)C(N)=O)C(C)C` gave an EC50 of > 1000 nM (Melanocyte-stimulating hormone receptor (MC1R, Homo sapiens, UniProt Q01726, M128L); cAMP, agonist).
For `CCc1ccccc1OS(=O)(=O)C1CC2OC1C(c1ccc(O)cc1)=C2c1ccc(O)cc1` (racemic), the EC50 was 390 nM (Estrogen receptor (ESR1, Homo sapiens, UniProt P03372); reporter gene, agonist, luciferase).
For `COc1cc(/C=C2\Cc3ccccc3C2=O)ccc1O`, the EC50 was 630 nM (ESR2; coactivator recruitment, agonist).
`CSCC[C@H](NC=O)C(=O)N[C@@H](CC(C)C)C(=O)O` has an EC50 of ~100 nM and 110 nM (fMet-Leu-Phe receptor (FPR1, Homo sapiens, UniProt P21462); binding, competitor; U-937; 4 °C, together with: 5 nM WK(FL)YMVm).
`CCNC(=O)[C@H]1O[C@@H](n2cnc3c(NCCCNC(=O)CCCCCNC(=O)COc4ccc(/C=C/C5=[N+]6C(=Cc7ccc(-c8cccs8)n7[B-]6(F)F)C=C5)cc4)ncnc32)[C@H](O)[C@@H]1O` has an EC50 of 661 nM (ADORA1; CRE-SPAP reporter gene, agonist; CHO-A1; Gs enhancement, together with: forskolin).
`N=C(N)NCCC[C@H](NC(=O)[C@H](Cc1ccccc1)NC(=O)[C@@H](N)CO)C(=O)N[C@@H](CC(N)=O)C(N)=O` gave an EC50 of 66.6 nM (Neuropeptide S receptor (Mus musculus, UniProt Q8BZP8); calcium signal, agonist).
With `CC/C(=C(\c1ccccc1)c1ccc(OCCN(C)CCCCC(=O)NCCCOc2ccc3[nH]cc(CCNC(C)=O)c3c2)cc1)c1ccccc1` the EC50 was 247 nM (Melatonin receptor type 1A (MTNR1A, Homo sapiens, UniProt P48039); phosphorylation in cells, agonist, AlphaScreen).

A few entries again:
For `CCc1ccccc1OS(=O)(=O)C1CC2OC1C(c1ccc(O)cc1)=C2c1ccc(O)cc1` (racemic), the EC50 was 390 nM (Estrogen receptor (ESR1, Homo sapiens, UniProt P03372); reporter gene, agonist, luciferase).
`CC[C@H](C)NC(=O)/C(=C\Nc1ccc(Cl)cc1)C(=O)c1ccccc1Cl` gave an EC50 of 160 ± 40 nM (GABA A receptor alpha-2/beta-2/gamma-2 (Homo sapiens, UniProt P18507+P47869+P47870); GABA current potentiation, positive modulator, two-electrode voltage clamp; Xenopus laevis oocytes; 30 s preincubation, together with: GABA EC10).
`N=C(N)NCCC[C@H](NC(=O)[C@H](CC(=O)O)NC(=O)[C@@H]1CSCCC(=O)NCC(=O)N[C@@H](Cc2c[nH]cn2)C(=O)N[C@H](Cc2ccccc2)C(=O)N[C@@H](CCCNC(=N)N)C(=O)N[C@H](Cc2c[nH]c3ccccc23)C(=O)N1)C(=O)N[C@@H](Cc1ccccc1)C(=O)NCC(N)=O` gave an EC50 of 1100 nM (Melanocortin receptor 3 (MC3R, Homo sapiens, UniProt P41968); cAMP, agonist).
